Literature values that unrelated publications cite.
Protocols differ between the studies behind these lines. ± marks the error that the study gave.
UniProt Q8TDC3, sequence (whole entry, looked up): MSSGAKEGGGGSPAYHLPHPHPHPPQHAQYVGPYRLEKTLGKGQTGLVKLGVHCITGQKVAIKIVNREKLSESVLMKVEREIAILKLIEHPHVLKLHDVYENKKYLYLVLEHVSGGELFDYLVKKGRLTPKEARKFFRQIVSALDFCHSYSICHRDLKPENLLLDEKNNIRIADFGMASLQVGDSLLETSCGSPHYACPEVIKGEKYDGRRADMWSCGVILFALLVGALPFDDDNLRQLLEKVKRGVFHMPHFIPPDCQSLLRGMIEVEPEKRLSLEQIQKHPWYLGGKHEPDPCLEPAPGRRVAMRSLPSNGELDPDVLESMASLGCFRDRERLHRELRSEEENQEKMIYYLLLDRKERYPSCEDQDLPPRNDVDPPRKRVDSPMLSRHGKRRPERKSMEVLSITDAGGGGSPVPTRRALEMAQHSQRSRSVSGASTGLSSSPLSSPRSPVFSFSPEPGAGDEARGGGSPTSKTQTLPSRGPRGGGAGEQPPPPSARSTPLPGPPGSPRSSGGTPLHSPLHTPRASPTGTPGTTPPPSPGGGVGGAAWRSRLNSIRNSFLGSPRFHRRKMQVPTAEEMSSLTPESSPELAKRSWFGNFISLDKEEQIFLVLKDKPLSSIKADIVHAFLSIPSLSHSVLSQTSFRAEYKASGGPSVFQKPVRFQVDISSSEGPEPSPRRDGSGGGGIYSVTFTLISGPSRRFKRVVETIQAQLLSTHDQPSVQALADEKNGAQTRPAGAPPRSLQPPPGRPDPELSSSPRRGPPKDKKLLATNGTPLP

SMILES | target or system | assay | test system | setting | how to read | measurement | value
Cc1c(C)c2c(c(C)c1O)CCC(C)(COc1ccc(CC3SC(=O)NC3=O)cc1)O2 (stereo not shown) |  |  | plasma | literature value |  | fraction unbound | 0.01
Cc1ccc(NC(=O)c2ccc(CN3CCN(C)CC3)cc2)cc1Nc1nc(-c2cccnc2)cs1 |  |  | plasma | estimated |  | fraction unbound | 0.07
C=CC[C@@H]1/C=C(\C)C[C@H](C)C[C@H](OC)[C@H]2O[C@@](O)(C(=O)C(=O)N3CCCC[C@H]3C(=O)O[C@H](/C(C)=C/[C@@H]3CC[C@@H](O)[C@H](OC)C3)[C@H](C)[C@@H](O)CC1=O)[C@H](C)C[C@@H]2OC |  |  | plasma |  |  | fraction unbound | 0.012 ± 0.0012
C=CC(=O)Nc1cc(Nc2nccc(-c3cn(C)c4ccccc34)n2)c(OC)cc1N(C)CCN(C)C |  |  | human plasma |  |  | fraction unbound | 3.4%
NC(=O)N1c2ccccc2CC(=O)c2ccccc21 |  |  | plasma |  |  | fraction unbound | 0.35
Cc1nn(C)cc1S(=O)(=O)NC(=O)c1ccc(-n2ccc(OCC(C)(C)C(F)(F)F)n2)nc1N1C[C@@H](C)CC1(C)C |  |  | microsomal incubation | CYP2C9 Ki |  | fraction unbound | 0.399
Cc1c(C(=O)O)ccc2c3n(nc12)[C@@H]1[C@H](C3)N(CC2CC2)[C@@]2(C(=O)Nc3cc(Cl)ccc32)[C@H]1c1cccc(Cl)c1F |  |  | human glioblastoma tissue |  |  | fraction unbound | 0.0017
CNC(C)C1CCC(N)C(OC2C(N)CC(N)C(OC3OCC(C)(O)C(NC)C3O)C2O)O1 (stereo not shown) | Acinetobacter baumannii |  | clinical isolate RKI-No_16/16 |  |  | MIC | > 8 µg/mL
CCOC(=O)/C=C\C(=O)OCC |  |  | plasma | literature value |  | fraction unbound | 0.393
Cc1cc(C[C@@H](NC(=O)N2CCC(c3cc4ccccc4[nH]c3=O)CC2)C(=O)N2CCN(C3CCN(C)CC3)CC2)cc2cn[nH]c12 |  |  | plasma | in vitro |  | fraction unbound | 0.335
CC(C)(C)c1cc(C(C)(C)C)c(NC(=O)c2c[nH]c3ccccc3c2=O)cc1O |  |  | pregnant women, first trimester, 1-12 weeks gestation, maternal plasma |  |  | fraction unbound | 0.001
C#Cc1cccc(Nc2ncnc3cc(OCCOC)c(OCCOC)cc23)c1 |  |  | brain |  |  | fraction unbound | 0.096
CCc1ccc(CCOc2ccc(CC3SC(=O)NC3=O)cc2)nc1 (stereo not shown) |  |  | plasma | literature value |  | fraction unbound | 0.01
CC1(C)S[C@@H]2[C@H](NC(=O)[C@H](N)c3ccccc3)C(=O)N2[C@H]1C(=O)O | Acinetobacter baumannii |  | clinical isolate RKI-No_12/16 |  |  | MIC | > 16 µg/mL
CC(C)(CO)c1cc2cc(NC(=O)C3(c4ccc5c(c4)OC(F)(F)O5)CC3)c(F)cc2n1C[C@@H](O)CO |  |  | microsomal incubation | CYP2C19 Ki |  | fraction unbound | 0.876
Nc1cc(C(F)(F)F)c(-c2nc(N3CCOCC3)nc(N3CCOCC3)n2)cn1 | Serine/threonine-protein kinase BRSK1 (BRSK1, Homo sapiens, UniProt Q8TDC3) | enzyme activity |  | 10 µM | relative to: untreated | remaining activity | 98%

For quick reference, copied from above:
SMILES | target or system | assay | test system | setting | how to read | measurement | value
C=CC[C@@H]1/C=C(\C)C[C@H](C)C[C@H](OC)[C@H]2O[C@@](O)(C(=O)C(=O)N3CCCC[C@H]3C(=O)O[C@H](/C(C)=C/[C@@H]3CC[C@@H](O)[C@H](OC)C3)[C@H](C)[C@@H](O)CC1=O)[C@H](C)C[C@@H]2OC |  |  | plasma |  |  | fraction unbound | 0.012 ± 0.0012
C=CC(=O)Nc1cc(Nc2nccc(-c3cn(C)c4ccccc34)n2)c(OC)cc1N(C)CCN(C)C |  |  | human plasma |  |  | fraction unbound | 3.4%
